Assay results of several laboratories.
Numbered parts are unrelated; each lists some results of a single study. Positions count from the first letter of the parent shown.

Series 1 — method: RNA Bind-n-Seq; molecule type: RNA; sample: in vitro; concentration: 365 nM; relative to: no-protein control; direction: higher = stronger binding
Target: RNA binding protein fox-1 homolog 2, RRM domain, GST-SBP tag (RBFOX2, Homo sapiens, UniProt O43251-10, residues 100-194)
Setting: natural RNA segment, single round, ends assumed
Construct (chain): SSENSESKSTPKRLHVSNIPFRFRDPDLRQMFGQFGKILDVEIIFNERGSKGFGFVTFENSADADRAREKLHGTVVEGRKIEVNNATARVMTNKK
| Oligonucleotide | RBNS enrichment (R) |
| --- | --- |
| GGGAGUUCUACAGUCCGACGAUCGAGGUACUAGUGGACAGGACUUUCAUGGCUUGGGUCCAUGCUCCUCCCACACCCAAGAGGAGUGGUGGGUUUGAGUUUGGAGGUUUUACUCAAGUGACAGCUUCAGCAUUUGGAAUUCUCGGGUGCCAA | 0.668 |
| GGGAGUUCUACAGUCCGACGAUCCCCCUCCGAGAAGGUGGCUGCGAGACAUGUCAUUCUACGGACCUGACUUGUCACAGUAGAGAUGCUGACAAACCACAUGUGGGAUUGCUAUGCUCCAAGGAUCACCUCAGUGGAAUUCUCGGGUGCCAA | 0.366 |
| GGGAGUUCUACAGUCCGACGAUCCCCAACUGGGCUUCCAGCCUUGUUGAAUGAAAUCAUCUAUCUCUGAUUGGGCGCAACGAACUGCAUUUCUUUGGACUUCUGAAUCCAUGUUUGUGCUUUCUCUGGCCCGUUGGAAUUCUCGGGUGCCAA | 0.251 |
| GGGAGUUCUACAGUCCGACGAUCUUUAUUUGUAUGUUGAAUGUACAGAUUCAUUUCAAGAAAAGCAUGAAGAUAAUGAAAGCAAAUAUGUAACAAUACAAGUAGGGACUUUAGAGCUUCUAUUUGGGUUAAAAUGGAAUUCUCGGGUGCCAA | 15.9 |
| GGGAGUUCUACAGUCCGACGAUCGAAAAGUGAGAUGUCUUCACGCUAAGGCUCCAGUGUUCUGUCAGAGACCUGAAUGCUCUAUUUGCCCAAUGCUUCCAGACUCUUAGCUGUUCUGCCCAGCCCCCGUCCCGUGGAAUUCUCGGGUGCCAA | 0.358 |
| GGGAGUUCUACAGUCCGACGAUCGCCGCUGAGAUCCAGUGUCCAAGCUGCGGCCAGGAGUCCACCCACCUCCGCAUCCACCCCCGUCCGCCAUCCUGCCCACCACCAGGUCGGUUCCCGAGGCCUGGCCUUUCUGGAAUUCUCGGGUGCCAA | 0.843 |
| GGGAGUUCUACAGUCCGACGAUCCUACCUUGGUGAUUUGGACCCUGGUUGCUUUGUGUCUAGUUUUCUAGACCCUUCAUCUCUUACUUGAUAGACUUACUAAUAAAAUGUGAAGACUAGACCAAUUGUCAUGCUGGAAUUCUCGGGUGCCAA | 0.495 |
| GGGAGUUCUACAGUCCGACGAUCCCAUACAGUACCUUGUUUAUCUGCUUCUUAAAGAAUCAGCCGAGACACCAUAAAAGAAAUAGGCUUUUUGUGCCUUUUGCUGUUAAUGUUUAAUUUACAAACUGUUUUGGUGGAAUUCUCGGGUGCCAA | 0.665 |
| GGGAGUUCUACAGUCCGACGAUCAUACACUGUAAGCUUUGUUCUGGGAGUGGCUGUUAAUUGGAUGUAUAAUGUAACGUUUUAUUUCAAUUGUUUAUAUGGAUAGUCUGAGCAGGUACGGUUCUGAUUCUGAUUGGAAUUCUCGGGUGCCAA | 0.621 |
| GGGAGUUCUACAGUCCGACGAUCACCCCUAAAGUGACCCUUUCCUCUUCUGCCCUAUUCUUCUCAGACCCUCAGAAAGACAUCCAAUUUUUUUAAAUCCCUGUAGCUCCAAGCCUGGUCUCAUUUGCUUCCCUUGGAAUUCUCGGGUGCCAA | 0.527 |
| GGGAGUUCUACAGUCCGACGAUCCUCCAUUUGAGUAUUUUGUAAUUUUUUUGAAAUAUUUGUGGACAUAAAUAAAACCAAGCUACACUACAGCACCCUGUGUGUUGGCCAGUGCACUGUCUCAUUCUGGAGUGUGGAAUUCUCGGGUGCCAA | 0.315 |
| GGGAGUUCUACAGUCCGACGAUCGUGCUAACACUUUUGCUCUUGGUUGAUGGACAAGAUAGAGGCCAGGGAGUGAAUAACAGUGAGAAGAGGAAUGGCAGGUGCCUGUUUCAUAGUCAGUGAGUGUGAAAGUUUGGAAUUCUCGGGUGCCAA | 0.804 |

Series 2 — method: protein-binding microarray; molecule type: double-stranded DNA, one strand shown; sample: in vitro; concentration: not given; direction: higher = stronger binding
Target: Protein C-ets-1 (ETS1, Homo sapiens, UniProt P14921, residues 1-441, full length assumed)
Setting: k-mer, scored over probes, only values ≥0.25
Residues (chain): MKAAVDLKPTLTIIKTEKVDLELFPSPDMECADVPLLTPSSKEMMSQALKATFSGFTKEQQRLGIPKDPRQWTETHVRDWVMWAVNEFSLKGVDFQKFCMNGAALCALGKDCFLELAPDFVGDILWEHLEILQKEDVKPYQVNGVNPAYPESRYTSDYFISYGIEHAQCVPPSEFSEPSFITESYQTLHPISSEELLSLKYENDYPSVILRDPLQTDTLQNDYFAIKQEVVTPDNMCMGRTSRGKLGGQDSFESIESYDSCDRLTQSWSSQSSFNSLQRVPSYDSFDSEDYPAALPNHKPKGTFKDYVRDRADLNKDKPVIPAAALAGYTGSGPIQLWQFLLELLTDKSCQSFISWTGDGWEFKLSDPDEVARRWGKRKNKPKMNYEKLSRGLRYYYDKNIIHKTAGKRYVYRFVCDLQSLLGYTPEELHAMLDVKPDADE
| Oligonucleotide | E-score |
| --- | --- |
| GGATTTTA | 0.258 |
| ACGGACGT | 0.406 |
| CCGGATGC | 0.495 |
| ACCGGTAG | 0.374 |
| GAAGTACC | 0.266 |
| GGATGTCA | 0.425 |
| GTGCCGGA | 0.425 |
| ACGCGTCC | 0.315 |
| CAGTATCC | 0.31 |
| CCGTTTTA | 0.268 |
| GGATAGGA | 0.256 |
| TAGCCGGA | 0.342 |
| CCGCTTCC | 0.443 |

Series 3 — target: CCNE1, cyclin fold, Cln2 fusion (human); method: yeast growth competition, sequencing; sample: yeast; setting: strong parent motif; relative to: not given; direction: higher = stronger binding
Parent: RBL2 docking peptide (human); STTRRRLFVENDS; partner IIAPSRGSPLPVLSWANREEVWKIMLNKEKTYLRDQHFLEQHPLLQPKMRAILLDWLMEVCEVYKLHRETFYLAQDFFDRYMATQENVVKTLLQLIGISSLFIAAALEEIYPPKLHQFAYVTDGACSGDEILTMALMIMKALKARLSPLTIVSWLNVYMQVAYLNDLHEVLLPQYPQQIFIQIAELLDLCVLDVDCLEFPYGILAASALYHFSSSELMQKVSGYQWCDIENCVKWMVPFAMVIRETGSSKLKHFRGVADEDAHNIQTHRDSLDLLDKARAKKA
| Substitution | normalised enrichment score |
| --- | --- |
| STTRCRLFVENDS [R5C] | 0.207 |
| STTRVRLFVENDS [R5V] | 0.392 |
| STTRRKLFVENDS [R6K] | 5.53 |
| STTRRRLFVENGS [D12G] | 4.89 |
| STTRRRLFVENQS [D12Q] | 4.58 |
| STTFRRLFVENDS [R4F] | 3.04 |
| STTRRRFFVENDS [L7F] | 0.258 |
| SKTRRRLFVENDS [T2K] | 6.88 |
| SVTRRRLFVENDS [T2V] | 5.77 |
| STYRRRLFVENDS [T3Y] | 7.54 |
| SWTRRRLFVENDS [T2W] | 5.61 |
| STTRRQLFVENDS [R6Q] | 5.53 |
| STTRRRLFVKNDS [E10K] | 1.58 |
| STTRRRLFGENDS [V9G] | 3.85 |
| STTWRRLFVENDS [R4W] | 0.355 |
| SGTRRRLFVENDS [T2G] | 6.27 |
| STTRRRLFVENDR [S13R] | 5.2 |
| STTRRRLFCENDS [V9C] | 6.13 |
| STTRRRLQVENDS [F8Q] | 0.516 |
| STTRRRLFVEWDS [N11W] | 5.17 |
| STTRRRLFVENDH [S13H] | 5.61 |
| STTRQRLFVENDS [R5Q] | 0.924 |

Series 4 — method: protein-binding microarray; molecule type: double-stranded DNA, one strand shown; sample: in vitro; concentration: 250 nM; setting: 60-bp whole probe; with: salmon DNA 0.4 mg/ml; relative to: random background probes; direction: higher = stronger binding; constant ends, left off below: GCCTAGCAC … GTCTTGATTCGCTTGACGCTGCTG
Target: Interferon regulatory factor 7, full length, phosphomimetic (IRF7, Homo sapiens, UniProt Q92985, residues 1-503, S101K/S471D/S472D/S475D/S476D/S477D/S483D/S484D/S487D)
Chain of UniProt Q92985 (whole entry, unmodified, looked up): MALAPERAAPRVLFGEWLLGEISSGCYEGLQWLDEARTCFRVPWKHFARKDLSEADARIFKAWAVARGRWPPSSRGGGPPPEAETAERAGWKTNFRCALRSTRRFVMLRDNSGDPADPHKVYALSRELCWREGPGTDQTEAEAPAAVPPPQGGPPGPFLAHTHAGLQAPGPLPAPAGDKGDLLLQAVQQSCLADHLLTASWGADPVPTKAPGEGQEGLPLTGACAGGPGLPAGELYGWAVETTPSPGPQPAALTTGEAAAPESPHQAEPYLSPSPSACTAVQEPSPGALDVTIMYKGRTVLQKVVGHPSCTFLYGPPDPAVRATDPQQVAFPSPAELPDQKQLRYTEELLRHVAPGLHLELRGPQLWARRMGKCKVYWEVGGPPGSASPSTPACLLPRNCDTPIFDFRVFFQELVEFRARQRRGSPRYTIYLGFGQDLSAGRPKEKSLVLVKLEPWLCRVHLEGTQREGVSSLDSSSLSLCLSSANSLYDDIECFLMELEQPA
| Oligonucleotide | log fluorescence |
| --- | --- |
| TCATTTATGCTTTCTTTAACTGTGCTA | 1.27 z-score |
| AGGTTTCTATATTTGCTTCAGTGCTAG | 5.52 z-score |
| TTTTTCTCCTATTTAAGACAGTGCTAG | 2.98 z-score |
| TCATATTTAGAACTTCTCACTGTGCTA | 0.653 z-score |
| GACGAACTGGGGTTTGGAGACGTGCTA | -0.43 z-score |
| TTAGGTTTCGGTTCCGGTTTGTGCTAG | 13.1 z-score |
| TCACAACTCGCCTTTTTTACTGTGCTA | 0.177 z-score |
| TCAACTCTTCTTTTTTTACTGTGCTAG | 0.489 z-score |
| GGATGTGTCTTAAATAGGGGAGTGCTA | -0.323 z-score |
| AGCAGTTTCTCAACCACTTTGTGCTAG | 0.387 z-score |
| TTAGAACTGTGGTTTCGATTAGTGCTA | 8.89 z-score |
| TTAGAACTGAGTCTCGATGAGTGCTAG | -0.286 z-score |
| TTAGATTTCATTATCGATTAGTGCTAG | 0.91 z-score |
| GACGGTCTCCTTTTCCTGAAGTGCTAG | 1.65 z-score |
| TTCGGTTTCGGTTTCGGTTAGTGCTAG | 15 z-score |
| TTACGTATCGGTATCGGTTAGTGCTAG | 1.82 z-score |
| GACAGTATCGGTTTCGGGACGTGCTAG | 6.46 z-score |
| GACAATTTCGGGTTTCGAGACGTGCTA | 5.05 z-score |
| GACGATATCAGTTTCGAGCCGTGCTAG | 1.69 z-score |
| TTAGATTTGAGTTCCGATTAGTGCTAG | 1.57 z-score |
| TCACCTTTCTGCCTCAGACTGTGCTAG | 0.64 z-score |
| TTAGGTCACCTTCTCCTTTAGTGCTAG | -0.0641 z-score |
| TTAGACCTCAGTCTCGATTAGTGCTAG | 1.66 z-score |
| TATCTTATCCTATCAGTTTAGTGCTAG | 1.23 z-score |
| AACACTCTTCTTTTGCTAATGTGCTAG | 0.944 z-score |

A few entries again (series 2):
| Oligonucleotide | E-score |
| --- | --- |
| ACGCGTCC | 0.315 |
| CCGGATGC | 0.495 |
| CCGCTTCC | 0.443 |
| GGATGTCA | 0.425 |
| ACCGGTAG | 0.374 |
| CCGTTTTA | 0.268 |
| GTGCCGGA | 0.425 |
| GAAGTACC | 0.266 |
| GGATAGGA | 0.256 |
| ACGGACGT | 0.406 |
